Results from different studies.
Each line is one published result; not all experiments were run side by side. “And” joins repeats or separate records; there may be more than shown.
Target: RAC-beta serine/threonine-protein kinase (AKT2, Homo sapiens, UniProt P31751)
Chain of UniProt P31751 (whole entry, looked up): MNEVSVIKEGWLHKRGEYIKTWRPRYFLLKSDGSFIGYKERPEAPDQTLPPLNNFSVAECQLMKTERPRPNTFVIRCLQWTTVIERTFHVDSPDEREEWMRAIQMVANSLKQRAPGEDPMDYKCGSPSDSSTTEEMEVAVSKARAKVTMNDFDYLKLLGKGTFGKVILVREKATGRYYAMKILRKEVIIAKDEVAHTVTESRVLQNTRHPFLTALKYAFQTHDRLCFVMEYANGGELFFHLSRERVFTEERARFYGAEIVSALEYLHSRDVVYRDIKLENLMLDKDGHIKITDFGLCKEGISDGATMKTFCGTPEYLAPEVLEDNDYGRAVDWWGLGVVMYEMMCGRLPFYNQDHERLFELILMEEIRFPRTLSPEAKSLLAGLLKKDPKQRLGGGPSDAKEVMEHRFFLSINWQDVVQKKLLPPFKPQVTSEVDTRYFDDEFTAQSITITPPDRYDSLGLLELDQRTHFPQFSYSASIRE

C[C@H](NCc1ccc(-c2ccc(C(F)(F)F)cc2)cc1)C(N)=O has an inhibition of 0% (cell-free assay, competition with immobilised ligand; 1 µM).
Nc1ccc(/C=C/C(=O)N2CCc3c(oc4c(-c5ccc(F)cc5)cc(-c5ccc(C(=O)N6CCC(F)(F)CC6)cn5)cc34)C2)cn1 gave a remaining binding of 98% (binding, competition with immobilised ligand; 1 µM).
O=C(O)c1ccccc1/C=N/Nc1nc(-c2ccccc2Cl)cs1 has an inhibition of 1.03% (kinase activity; 1 µM).
O=C1NC(=O)c2c1c1cc(F)c[n+]3c1c1c2c2cc(O)ccc2[n]1[Ru-4]312([N]=C=S)[S+]3CC[S+]1CC[S+]2CC3 (centres unmarked) has a remaining activity of 57% (enzyme activity; 100 nM, human enzyme, together with: 10 µM ATP; reference: untreated).
With CC(C)[C@H]1NC(=O)C[C@H]2/C=C/CCSSC[C@@H](NC1=O)C(=O)N[C@H](Cc1cccc3ccccc13)C(=O)NCC(=O)O2 the inhibition was -2.4% (enzyme activity, inhibitor; 10 µM).
For CCOC(=O)[C@@H]1Cc2c(cc([N+](=O)[O-])cc2[N+](=O)[O-])[C@H](O)[C@]12C(=O)Nc1ccc(Br)cc12, the remaining binding was 51% (binding, competition with immobilised ligand; 0.1 µM).
For [CH3][Ti+2][O]C(=O)c1ccc([S][Au][PH](c2ccccc2)(c2ccccc2)c2ccccc2)cc1.c1cc[cH-]c1.c1cc[cH-]c1, the remaining activity was 82.7% and 82.8% (kinase activity, HotSpot radiometric; 1 µM, together with: ATP 10 µM; reference: vehicle).
With CS(C)(=O)=Nc1ccc(-c2ccc(-c3nc4cc(O[C@@H]5CO[C@H]6[C@@H]5OC[C@H]6O)[nH]c4cc3F)cc2)cc1 the inhibition was -24% (enzyme activity, inhibitor; 10 µM).

For quick reference, copied from above:
With CS(C)(=O)=Nc1ccc(-c2ccc(-c3nc4cc(O[C@@H]5CO[C@H]6[C@@H]5OC[C@H]6O)[nH]c4cc3F)cc2)cc1 the inhibition was -24% (enzyme activity, inhibitor; 10 µM).
